Experimental data of several laboratories.
Lines come from different studies, so protocols differ.

Structure (SMILES) = COc1cc(OC)cc(C2=C3C(C)=C(I)C(/C=C/c4c[nH]c5ccc([N+](=O)[O-])cc45)=[N+]3[B-](F)(F)n3c(/C=C/c4c[nH]c5ccc([N+](=O)[O-])cc45)c(I)c(C)c32)c1; system = THF; emission maximum = 720 nm
Structure (SMILES) = CCCCN1C(=O)c2cccc3c(NCCCCCCCCN4CCOCC4)ccc(c23)C1=O; system = aqueous medium; conditions = pH 6; emission maximum = 559 nm
Structure (SMILES) = CC1=CC(C)=[N+]2C1=C(c1ccc(C[P+](c3ccccc3)(C3CCCCC3)C3CCCCC3)cc1)c1c(C)cc(C)n1[B-]2(F)F; system = PBS; conditions = 10 µM, pH 7.4, 298 K, together with: excitation 497 nm; emission maximum = 511 nm
Structure (SMILES) = CC1=CC(C)=[N+]2C1=C(CCCC(=O)O)c1c(C)cc(C)n1[B-]2(F)F; system = acetonitrile/water; emission maximum = 505 nm
Structure (SMILES) = COc1cc(OC)cc(C2=C3C(C)=C(I)C(C)=[N+]3[B-](F)(F)n3c(/C=C/c4cccs4)c(I)c(C)c32)c1; system = DMSO; emission maximum = 621 nm
Structure (SMILES) = COc1ccc2c(c1)c(CC(=O)NCCCCNC(=O)c1ccc(C(=O)[O-])c(C3=c4cc5c6c(c4Oc4c3cc3c7c4CCCN7CCC3)CCC[N+]=6CCC5)c1)c(C)n2C(=O)c1ccc(Cl)cc1; assay = fluorescence spectroscopy; conditions = pH 7; emission maximum = 603 nm
Structure (SMILES) = Cc1nc(C#N)ccc1N; system = phosphate buffer with BSA; conditions = pH 8, 37 °C, 1% DMSO; emission maximum = 380 nm
Structure (SMILES) = CCCCN1C(=O)c2cccc3c(NCCCCCCCCCCN4CCOCC4)ccc(c23)C1=O; system = aqueous medium; conditions = pH 6; emission maximum = 558 nm
Structure (SMILES) = COc1cc(OC)cc(C2=C3C(C)=C(I)C(C)=[N+]3[B-](F)(F)n3c(/C=C/c4c[nH]c5ccc([N+](=O)[O-])cc45)c(I)c(C)c32)c1; system = dichloromethane; emission maximum = 630 nm
Structure (SMILES) = COc1ccc2cc(-c3ccc(-c4ccc(C)cn4)nc3)oc2c1; system = acetonitrile; conditions = zinc complex; emission maximum = 538 nm
Structure (SMILES) = COC(=O)c1ccccc1-c1c2ccc(=N)cc-2oc2c1ccc1cccc(OC)c12; system = phosphate buffer; conditions = pH 7.4, 10% DMSO; emission maximum = 596 nm
Structure (SMILES) = COc1cc(OC)cc(C2=C3C(C)=C(I)C(/C=C/c4cccs4)=[N+]3[B-](F)(F)n3c(/C=C/c4cccs4)c(I)c(C)c32)c1; system = dichloromethane; emission maximum = 682 nm
Structure (SMILES) = Nc1ncnc2c1nc(-n1nnc3c1CCC1C(CO)C1CC3)n2C1OC(CO)C(O)C1O (mixture of isomers); system = DMSO; emission maximum = 376 nm
Structure (SMILES) = COc1ccc(/C=C/c2ccc(-c3ccc(C)cn3)nc2)cc1; system = acetonitrile; conditions = zinc-free ligand; emission maximum = 431 nm
Structure (SMILES) = COCCOCCOCCOc1ccc(/C=C/c2c(I)c(C)c3n2[B-](F)(F)[N+]2=C(C)C(I)=C(C)C2=C3c2cc(OC)cc(OC)c2)cc1; system = THF; emission maximum = 612 nm
Structure (SMILES) = Nc1ncnc2c1nc(-n1nnc3c1CCC1C(CO)C1CC3)n2C1CC(O)C(CO)O1 (mixture of isomers); system = methanol; emission maximum = 397 nm
Structure (SMILES) = COc1cc(OC)cc(C2=C3C(C)=C(I)C(/C=C/c4c[nH]c5ccccc45)=[N+]3[B-](F)(F)n3c(/C=C/c4c[nH]c5ccccc45)c(I)c(C)c32)c1; system = dichloromethane; emission maximum = 735 nm
Structure (SMILES) = CCn1cc(/C=C/c2ccc3ccccc3[n+]2CC)c2ccccc21; system = MeOH; conditions = together with: excitation 488 nm; emission maximum = 555 nm

Repeated from above:
Structure (SMILES) = CCCCN1C(=O)c2cccc3c(NCCCCCCCCN4CCOCC4)ccc(c23)C1=O; system = aqueous medium; conditions = pH 6; emission maximum = 559 nm
Structure (SMILES) = CC1=CC(C)=[N+]2C1=C(c1ccc(C[P+](c3ccccc3)(C3CCCCC3)C3CCCCC3)cc1)c1c(C)cc(C)n1[B-]2(F)F; system = PBS; conditions = 10 µM, pH 7.4, 298 K, together with: excitation 497 nm; emission maximum = 511 nm
Structure (SMILES) = CC1=CC(C)=[N+]2C1=C(CCCC(=O)O)c1c(C)cc(C)n1[B-]2(F)F; system = acetonitrile/water; emission maximum = 505 nm
